Experimental data gathered from unrelated publications.
Each numbered part is a random draw from the data of one study; scales do not carry over between parts. Substitutions count along the parent as printed.

Series 1
Target: CCNF, cyclin fold, Cln2 fusion (human)
Method: yeast growth competition, sequencing
Sample: yeast
Notes: strong parent motif
Baseline: not given
Direction: higher = stronger binding
Starting sequence: REPIN1 docking peptide (human); QSFRGWVALVLHL
Change | normalised enrichment score
S2A | 1.88
H12A | 2.12
V7A | 1.83
L13A | 2.44
V10A | 1.98
L9A | 1.72

Series 2
Target: Histone acetyltransferase KAT6A, winged helix 2, GST fusion (KAT6A, Homo sapiens, UniProt Q92794, residues 85-181)
Method: protein binding microarray
Molecule type: double-stranded DNA, one strand shown
Sample: in vitro
Concentration: not given
Notes: 8-mer, flanks averaged, mean of 2 arrays, mostly near background
Baseline: not given
Direction: higher = stronger binding
Residues (chain): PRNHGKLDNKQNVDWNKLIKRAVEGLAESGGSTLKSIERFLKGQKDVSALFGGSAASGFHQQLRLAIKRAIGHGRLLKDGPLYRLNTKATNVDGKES
Strand | E-score
CACGTCAA | -0.203
CATCTATC | -0.0745
AACTGCTA | -0.0742
GACAGCTC | -0.102
CCGAATCG | 0.117
AATGATCA | -0.0439
ATGAGCCG | -0.0932
AGTCCATG | -0.242
GATCGTCA | -0.108
CGCGTCTA | -0.0155
TCAGGACA | 0.104

Series 3
Target: ABI1, truncated, D143A, DHFR fusion (Arabidopsis thaliana)
Method: DHFR PCA, deep sequencing
Sample: yeast
Notes: methotrexate growth selection, single substitutions
Together with: (+)-ABA 4.8 µM
Baseline: wild-type fitted maximum
Direction: higher = stronger binding
Starting sequence: PYL1, truncated, DHFR fusion (Arabidopsis thaliana); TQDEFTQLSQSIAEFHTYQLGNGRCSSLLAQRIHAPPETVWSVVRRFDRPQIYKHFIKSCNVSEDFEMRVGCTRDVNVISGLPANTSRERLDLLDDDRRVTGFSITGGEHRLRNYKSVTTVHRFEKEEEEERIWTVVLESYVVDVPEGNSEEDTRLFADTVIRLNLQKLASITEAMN
Change | relative binding score [%]
S117I | -12.8
G148C | 10.3
V137I | 33
S9Q | 80
S11Y | 70.8
G81I | 3.86
D95M | 17.5
L156H | 54.3

Other studies, line by line
Substance | target | test | system | setting | how to read | endpoint | result
PhoQ, residues 284 288 289 292 302 303 NSMLDC | PhoP, residues 12 14 15 18 19 LHSVW (Escherichia coli, UniProt P23836) | Sort-seq, item: YFP reporter | E. coli | PhoQ-PhoP variant library, together with: 10 µM Mg2+ | baseline: high Mg2+ state, higher = stronger signaling | fold induction | 4.79

Repeated from above (series 1):
Change | normalised enrichment score
H12A | 2.12
V7A | 1.83
